Published values pooled from the literature.
“And” joins repeats or separate records; there may be more than shown.
B1: TEPSIN W188S/D189S/E190S/L191S (Homo sapiens, UniProt Q96N21); chain MAAAPPLRDRLSFLHRLPILLKGTSDDDVPCPGYLFEEIAKISHESPGSSQCLLEYLLSRLHSSSGHGKLKVLKILLYLCSHGSSFFLLILKRNSAFIQEAAAFAGPPDPLHGNSLYQKVRAAAQDLGSTLFSDTVLPLAPSQPLGTPPATGMGSQARPHSTLQGFGYSKEHGRTAVRHQPGQAGGGSSSSDSGPSSQNSSQNSDLSRVSDSGSHSGSDSHSGASREPGDLAERVEVVALSDCQQELSLVRTVTRGPRAFLSREEAQHFIKACGLLNCEAVLQLLTCHLRGTSECTQLRALCAIASLGSSDLLPQEHILLRTRPWLQELSMGSPGPVTNKATKILRHFEASCGQLSPARGTSAEPGPTAALPGPSDLLTDAVPLPGSQVFLQPLSSTPVSSRSPAPSSGMPSSPVPTPPPDASPIPAPGDPSEAEARLAESRRWRPERIPGGTDSPKRGPSSCAWSRDSLFAGMELVACPRLVGAGAAAGESCPDAPRAPQTSSQRTAAKEPPGSEPSAFAFLNA
B2: fbf-2 121-632 (Caenorhabditis elegans, UniProt Q09312); sequence looked up; chain DFSQNVRCFSADIDRSKSYGSSKHYHLKYSRPALSRNSRSFTRSNNVLPTWSLDSNGEMRSRLSLSEVLDSGDLMKFAVDKTGCQFLEKAVKGSLTSYQKFQLFEQVIGRKDDFLKLSTNIFGNYLVQSVIGISLATNDDGYTKRQEKLKNFISSQMTDMCLDKFACRVIQSSLQNMDLSLACKLVQALPRDARLIAICVDQNANHVIQKVVAVIPLKNWEFIVDFVATPEHLRQICSDKYGCRVVQTIIEKLTADSMNVDLTSAAQNLRERALQRLMTSVTNRCQELATNEYANYIIQHIVSNDDLAVYRECIIEKCLMRNLLSLSQEKFASHVVEKAFLHAPLELLAEMMDEIFDGYIPHPDTGKDALDIMMFHQFGNYVVQCMLTICCDAVSGRRQTKEGGYDHAISFQDWLKKLHSRVTKERHRLSRFSSGKKMIETLANLRSTHPIYELQSSGHDSFKTDYFSTASEHDGPELEKNGIEEGSLMLEPRSNKSSVSVKFSSSGSHGDD
B3: BRAF kinase 448-723 K723G/P722S/S720E/L716E/S713E/Q709R/L706S/A688R/Y673S/R662E/K630S/V600E/L588N/Q562R (Homo sapiens, UniProt P15056); sequence looked up; chain DDWEIPDGQITVGQRIGSGSFGTVYKGKWHGDVAVKMLNVTAPTPQQLQAFKNEVGVLRKTRHVNILLFMGYSTKPQLAIVTQWCEGSSLYHHLHASETKFEMKKLIDIARQTARGMDYLHAKSIIHRDLKSNNIFLHEDNTVKIGDFGLATEKSRWSGSHQFEQLSGSILWMAPEVIRMQDSNPYSFQSDVYAFGIVLYELMTGQLPYSNINNEDQIIFMVGRGSLSPDLSKVRSNCPKRMKRLMAECLKKKRDERPSFPRILAEIEELARELSG
B4: TIMP2 27-153 (Homo sapiens, UniProt P16035); sequence looked up; chain CSCSPVHPQQAFCNADVVIRAKAVSEKEVDSGNDIYGNPIKRIQYEIKQIKMFKGPEKDIEFIYTAPSSAVCGVSLDVGGKKEYLIAGKAEGDGKMHITLCDFIVPWDTLSTTQKKSLNHRYQMGCE
B5: Cacna1c 1647-1777 (Mus musculus, UniProt Q01815); sequence looked up; chain NALSLQAGLRTLHDIGPEIRRAISGDLTAEEELDKAMKEAVSAASEDDIFRRAGGLFGNHVTYYQSDSRGNFPQTFATQRPLHINKTGNNQADTESPSHEKLVDSTFTPSSYSSTGSNANINNANNTALGR
B6: ITGAV/ITGB6 ectodomain, soluble, clasped; chain 1 FNLDVDSPAEYSGPEGSYFGFAVDFFVPSASSRMFLLVGAPKANTTQPGIVEGGQVLKCDWSSTRRCQPIEFDATGNRDYAKDDPLEFKSHQWFGASVRSKQDKILACAPLYHWRTEMKQEREPVGTCFLQDGTKTVEYAPCRSQDIDADGQGFCQGGFSIDFTKADRVLLGGPGSFYWQGQLISDQVAEIVSKYDPNVYSIKYNNQLATRTAQAIFDDSYLGYSVAVGDFNGDGIDDFVSGVPRAARTLGMVYIYDGKNMSSLYNFTGEQMAAYFGFSVAATDINGDDYADVFIGAPLFMDRGSDGKLQEVGQVSVSLQRASGDFQTTKLNGFEVFARFGSAIAPLGDLDQDGFNDIAIAAPYGGEDKKGIVYIFNGRSTGLNAVPSQILEGQWAARSMPPSFGYSMKGATDIDKNGYPDLIVGAFGVDRAILYRARPVITVNAGLEVYPSILNQDNKTCSLPGTALKVSCFNVRFCLKADGKGVLPRKLNFQVELLLDKLKQKGAIRRALFLYSRSPSHSKNMTISRGGLMQCEELIAYLRDESEFRDKLTPITIFMEYRLDYRTAADTTGLQPILNQFTPANISRQAHILLDCGEDNVCKPKLEVSVDSDQKKIYIGDDNPLTLIVKAQNQGEGAYEAELIVSIPLQADFIGVVRNNEALARLSCAFKTENQTRQVVCDLGNPMKAGTQLLAGLRFSVHQQSEMDTSVKFDLQIQSSNLFDKVSPVVSHKVDLAVLAAVEIRGVSSPDHVFLPIPNWEHKENPETEEDVGPVVQHIYELRNNGPSSFSKAMLHLQWPYKYNNNTLLYILHYDIDGPMNCTSDMEINPLRIKISSLQTTEKNDTVAGQGERDHLITKRDLALSEGDIHTLGCGVAQCLKIVCQVGRLDRGKSAILYVKSLLWTETFMNKENQNHSYSLKSSASFNVIEFPYKNLPIEDITNSTLVTTNVTWGIQPAPMPV; chain 2 GCALGGAETCEDCLLIGPQCAWCAQENFTHPSGVGERCDTPANLLAKGCQLNFIENPVSQVEILKNKPLSVGRQKNSSDIVQIAPQSLILKLRPGGAQTLQVHVRQTEDYPVDLYYLMDLSASMDDDLNTIKELGSRLSKEMSKLTSNFRLGFGSFVEKPVSPFVKTTPEEIANPCSSIPYFCLPTFGFKHILPLTNDAERFNEIVKNQKISANIDTPEGGFDAIMQAAVCKEKIGWRNDSLHLLVFVSDADSHFGMDSKLAGIVIPNDGLCHLDSKNEYSMSTVLEYPTIGQLIDKLVQNNVLLIFAVTQEQVHLYENYAKLIPGATVGLLQKDSGNILQLIISAYEELRSEVELEVLGDTEGLNLSFTAICNNGTLFQHQKKCSHMKVGDTASFSVTVNIPHCERRSRHIIIKPVGLGDALELLVSPECNCDCQKEVEVNSSKCHHGNGSFQCGVCACHPGHMGPRCECGEDMLSTDSCKEAPDHPSCSGRGDCYCGQCICHLSPYGNIYGPYCQCDNFSCVRHKGLLCGGNGDCDCGECVCRSGWTGEYCNCTTSTDSCVSEDGVLCSGRGDCVCGKCVCTNPGASGPTCERCPTCGDPCNSKRSCIECHLSAAGQAREECVDKCKLAGATISEEEDFSKDGSVSCSLQGENECLITFLITTDNEGKTIIHSINEKDCPKPPNIP
Sequence of UniProt P06733 (whole entry, looked up): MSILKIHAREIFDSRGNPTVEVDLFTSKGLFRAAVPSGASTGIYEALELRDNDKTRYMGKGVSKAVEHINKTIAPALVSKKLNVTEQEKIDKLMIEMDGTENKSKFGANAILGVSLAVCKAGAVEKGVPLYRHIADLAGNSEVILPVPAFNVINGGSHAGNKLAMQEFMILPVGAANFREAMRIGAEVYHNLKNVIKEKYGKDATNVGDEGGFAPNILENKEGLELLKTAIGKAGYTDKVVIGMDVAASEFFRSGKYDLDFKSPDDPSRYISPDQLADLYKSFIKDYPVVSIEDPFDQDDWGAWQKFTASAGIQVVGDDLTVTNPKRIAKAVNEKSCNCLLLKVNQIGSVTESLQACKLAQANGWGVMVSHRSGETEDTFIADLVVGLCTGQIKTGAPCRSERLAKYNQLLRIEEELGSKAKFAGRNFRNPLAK
Sequence of UniProt P09119 (whole entry, looked up): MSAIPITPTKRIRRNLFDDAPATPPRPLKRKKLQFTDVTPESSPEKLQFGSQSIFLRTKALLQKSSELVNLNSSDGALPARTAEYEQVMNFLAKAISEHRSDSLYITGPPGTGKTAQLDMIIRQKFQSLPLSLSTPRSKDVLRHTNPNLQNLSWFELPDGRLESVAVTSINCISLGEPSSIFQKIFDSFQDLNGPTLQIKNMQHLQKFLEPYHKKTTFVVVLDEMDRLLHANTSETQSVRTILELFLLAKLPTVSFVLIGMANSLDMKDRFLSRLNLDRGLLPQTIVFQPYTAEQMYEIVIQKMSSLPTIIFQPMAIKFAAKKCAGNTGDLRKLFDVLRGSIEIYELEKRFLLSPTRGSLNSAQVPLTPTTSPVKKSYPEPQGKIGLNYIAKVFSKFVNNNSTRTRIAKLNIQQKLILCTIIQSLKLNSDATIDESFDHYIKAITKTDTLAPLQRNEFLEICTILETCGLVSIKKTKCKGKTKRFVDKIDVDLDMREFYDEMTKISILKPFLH
Sequence of UniProt P39705 (whole entry, unmodified, looked up): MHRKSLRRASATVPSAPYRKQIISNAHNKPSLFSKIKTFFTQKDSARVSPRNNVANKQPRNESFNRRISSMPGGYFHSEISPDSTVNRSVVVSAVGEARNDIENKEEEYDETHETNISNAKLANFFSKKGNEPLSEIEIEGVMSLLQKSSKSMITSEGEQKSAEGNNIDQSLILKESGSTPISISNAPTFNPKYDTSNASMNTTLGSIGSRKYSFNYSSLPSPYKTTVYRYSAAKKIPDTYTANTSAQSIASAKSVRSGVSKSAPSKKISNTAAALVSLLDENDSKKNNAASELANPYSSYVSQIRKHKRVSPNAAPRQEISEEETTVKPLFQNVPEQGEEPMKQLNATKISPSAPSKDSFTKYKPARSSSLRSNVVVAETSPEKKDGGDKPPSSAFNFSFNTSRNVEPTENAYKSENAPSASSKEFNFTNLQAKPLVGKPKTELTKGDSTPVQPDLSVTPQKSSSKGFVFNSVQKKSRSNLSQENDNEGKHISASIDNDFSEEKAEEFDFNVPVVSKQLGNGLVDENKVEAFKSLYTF
Sequence of UniProt P54790 (whole entry, looked up): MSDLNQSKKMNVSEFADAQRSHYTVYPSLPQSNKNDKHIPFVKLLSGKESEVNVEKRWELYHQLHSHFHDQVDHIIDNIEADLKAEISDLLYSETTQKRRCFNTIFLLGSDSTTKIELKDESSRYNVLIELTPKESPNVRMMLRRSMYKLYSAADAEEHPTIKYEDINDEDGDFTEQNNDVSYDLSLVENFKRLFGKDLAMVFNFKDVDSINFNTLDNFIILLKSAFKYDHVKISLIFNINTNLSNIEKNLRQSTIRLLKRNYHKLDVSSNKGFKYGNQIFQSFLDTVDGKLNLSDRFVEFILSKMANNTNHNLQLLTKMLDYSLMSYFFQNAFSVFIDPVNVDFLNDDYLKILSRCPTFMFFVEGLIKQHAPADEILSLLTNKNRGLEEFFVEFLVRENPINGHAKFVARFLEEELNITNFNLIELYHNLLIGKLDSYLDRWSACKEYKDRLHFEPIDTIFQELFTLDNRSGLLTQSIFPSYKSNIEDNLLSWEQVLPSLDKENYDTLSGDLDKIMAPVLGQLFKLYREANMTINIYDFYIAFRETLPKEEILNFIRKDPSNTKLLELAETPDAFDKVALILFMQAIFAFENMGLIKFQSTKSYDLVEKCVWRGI
Sequence of UniProt Q7L1T6 (whole entry, looked up): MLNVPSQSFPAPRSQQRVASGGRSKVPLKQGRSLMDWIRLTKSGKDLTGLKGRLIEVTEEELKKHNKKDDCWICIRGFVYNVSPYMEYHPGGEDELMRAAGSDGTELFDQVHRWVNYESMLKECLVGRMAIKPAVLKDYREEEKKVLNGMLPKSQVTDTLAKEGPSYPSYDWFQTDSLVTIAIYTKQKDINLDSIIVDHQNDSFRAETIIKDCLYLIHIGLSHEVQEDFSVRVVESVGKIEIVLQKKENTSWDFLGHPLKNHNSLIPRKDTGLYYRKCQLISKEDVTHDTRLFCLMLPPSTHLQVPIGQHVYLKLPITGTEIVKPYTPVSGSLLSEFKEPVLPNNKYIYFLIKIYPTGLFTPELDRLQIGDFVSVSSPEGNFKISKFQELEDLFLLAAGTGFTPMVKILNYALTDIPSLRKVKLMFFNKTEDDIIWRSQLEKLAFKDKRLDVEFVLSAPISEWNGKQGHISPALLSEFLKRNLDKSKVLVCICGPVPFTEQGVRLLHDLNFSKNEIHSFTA
Sequence of UniProt Q14980 (whole entry, looked up): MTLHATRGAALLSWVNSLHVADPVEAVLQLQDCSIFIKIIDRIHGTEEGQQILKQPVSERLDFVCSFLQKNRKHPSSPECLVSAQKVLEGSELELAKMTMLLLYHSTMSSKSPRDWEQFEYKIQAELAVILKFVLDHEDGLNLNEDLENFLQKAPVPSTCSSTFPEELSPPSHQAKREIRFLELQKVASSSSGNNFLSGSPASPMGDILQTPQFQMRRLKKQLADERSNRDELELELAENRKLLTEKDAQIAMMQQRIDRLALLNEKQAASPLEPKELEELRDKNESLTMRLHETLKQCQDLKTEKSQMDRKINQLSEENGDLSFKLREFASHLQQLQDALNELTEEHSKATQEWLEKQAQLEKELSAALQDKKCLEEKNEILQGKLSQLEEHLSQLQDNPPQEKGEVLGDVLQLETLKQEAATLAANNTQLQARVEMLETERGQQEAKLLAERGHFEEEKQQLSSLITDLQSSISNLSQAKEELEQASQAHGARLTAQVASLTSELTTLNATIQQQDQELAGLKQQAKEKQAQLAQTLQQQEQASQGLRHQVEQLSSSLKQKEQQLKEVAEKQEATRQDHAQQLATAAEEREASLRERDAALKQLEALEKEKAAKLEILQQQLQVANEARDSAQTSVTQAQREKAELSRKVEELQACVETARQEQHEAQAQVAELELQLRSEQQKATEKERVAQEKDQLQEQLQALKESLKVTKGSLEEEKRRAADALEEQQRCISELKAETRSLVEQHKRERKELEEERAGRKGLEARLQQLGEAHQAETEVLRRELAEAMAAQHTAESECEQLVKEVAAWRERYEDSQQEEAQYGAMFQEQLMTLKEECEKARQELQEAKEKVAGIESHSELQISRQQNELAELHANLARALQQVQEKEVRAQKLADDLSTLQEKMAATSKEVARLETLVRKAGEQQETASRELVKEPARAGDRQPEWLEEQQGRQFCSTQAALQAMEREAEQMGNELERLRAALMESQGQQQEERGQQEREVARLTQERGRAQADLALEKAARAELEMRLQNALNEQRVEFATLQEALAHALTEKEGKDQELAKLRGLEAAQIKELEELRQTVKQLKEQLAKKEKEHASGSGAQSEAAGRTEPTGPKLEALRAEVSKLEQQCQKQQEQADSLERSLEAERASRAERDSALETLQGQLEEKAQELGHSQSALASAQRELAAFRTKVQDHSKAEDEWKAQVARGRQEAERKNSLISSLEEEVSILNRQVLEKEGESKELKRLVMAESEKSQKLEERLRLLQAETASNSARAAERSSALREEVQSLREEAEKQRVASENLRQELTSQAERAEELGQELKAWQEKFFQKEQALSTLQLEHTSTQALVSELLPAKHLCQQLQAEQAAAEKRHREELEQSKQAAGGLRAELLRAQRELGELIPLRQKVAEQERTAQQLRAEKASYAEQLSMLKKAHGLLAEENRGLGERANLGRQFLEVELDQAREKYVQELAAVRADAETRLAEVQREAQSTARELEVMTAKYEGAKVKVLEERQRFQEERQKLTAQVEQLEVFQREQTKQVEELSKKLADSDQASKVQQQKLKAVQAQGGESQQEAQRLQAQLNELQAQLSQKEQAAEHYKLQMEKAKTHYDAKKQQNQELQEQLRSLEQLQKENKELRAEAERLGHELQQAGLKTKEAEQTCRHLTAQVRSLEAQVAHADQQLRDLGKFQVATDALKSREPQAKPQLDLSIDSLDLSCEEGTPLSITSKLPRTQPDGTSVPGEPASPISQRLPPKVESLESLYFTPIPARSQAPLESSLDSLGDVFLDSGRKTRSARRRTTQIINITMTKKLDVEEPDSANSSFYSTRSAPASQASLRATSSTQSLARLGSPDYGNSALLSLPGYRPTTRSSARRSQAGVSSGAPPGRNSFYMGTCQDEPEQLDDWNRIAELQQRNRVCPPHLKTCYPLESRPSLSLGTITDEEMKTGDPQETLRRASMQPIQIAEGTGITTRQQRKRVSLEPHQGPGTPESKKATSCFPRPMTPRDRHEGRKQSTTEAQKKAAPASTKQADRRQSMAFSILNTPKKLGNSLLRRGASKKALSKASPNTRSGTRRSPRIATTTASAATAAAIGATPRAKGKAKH
Sequence of UniProt Q05541 (whole entry, looked up): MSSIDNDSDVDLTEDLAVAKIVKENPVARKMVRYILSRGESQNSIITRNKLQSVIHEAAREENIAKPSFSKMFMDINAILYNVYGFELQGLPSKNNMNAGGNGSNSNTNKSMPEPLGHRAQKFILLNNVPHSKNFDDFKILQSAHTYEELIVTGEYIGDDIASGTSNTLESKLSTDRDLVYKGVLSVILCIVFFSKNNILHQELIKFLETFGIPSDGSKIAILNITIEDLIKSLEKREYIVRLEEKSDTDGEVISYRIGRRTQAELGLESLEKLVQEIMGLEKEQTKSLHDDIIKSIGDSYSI

Molecule	tested on	assay	system	conditions	scale	quantity	result
QGRWDHETIV	human MAGI1-3/6 PDZ construct (MBP fusion)	automated holdup	peptide, crude extract	concentration not given, corrected by standard peak, unit not given	relative to: biotin control resin, higher = stronger binding	binding intensity	0.329
RECQL5 (Homo sapiens, UniProt O94762)	SMC3 (Homo sapiens, UniProt Q9UQE7)	cross-linking MS	–	with: DSSO	–	cross-linked residues	K939 to K280
B1 (TEPSIN W188S/D189S/E190S/L191S)	MAP1LC3B 1-120 (Homo sapiens, UniProt Q9GZQ8)	BLI	–	–	–	kon	659 M⁻¹ s⁻¹ and 702 M⁻¹ s⁻¹ and 849 M⁻¹ s⁻¹ and 426 M⁻¹ s⁻¹
FGB (Homo sapiens, UniProt P02675)	BRIP1 (Homo sapiens, UniProt Q9BX63)	cross-linking MS	–	with: DSSO	–	cross-linked residues	K77 to K1235
SUPT6H, Cy3-labelled Spy tag (Homo sapiens, UniProt Q7KZ85)	RNA polymerase II elongation complex, P-TEFb phosphorylated (Sus scrofa)	single-molecule fluorescence colocalisation	–	phosphorylated	–	residence time	412 s
EKPIDSETKM	human SCRIB PDZ3-4 tandem (MBP fusion)	automated holdup	peptide, purified PDZ protein	concentration not given, unit not given	relative to: biotin control resin, higher = stronger binding	binding intensity	-0.0456
B2 (fbf-2 121-632)	gld-3 850-900 P869A (Caenorhabditis elegans, UniProt Q95ZK7)	LacZ luminescence, yeast two-hybrid	–	–	relative to: wild-type GLD-3, higher = lower activity	LacZ activity decrease	3 fold
FGA (Homo sapiens, UniProt P02671)	DSP (Homo sapiens, UniProt P15924)	cross-linking MS	–	with: DSSO	–	cross-linked residues	K440 to K1647
ACOT7 (Homo sapiens, UniProt O00154)	ENO1 (Homo sapiens, UniProt P06733)	cross-linking MS	cells	with: iqPIR	–	cross-linked residues	K286 to K420
CYB5R4 (Homo sapiens, UniProt Q7L1T6)	CYGB R84E (Homo sapiens, UniProt Q8WWM9)	NO dioxygenation	–	750 nM, 37 °C, R84E, with: NADH 200 µM	–	time	> 200 s
DYNC1H1 (Homo sapiens, UniProt Q14204)	NUMA1 1-705 (Homo sapiens, UniProt Q14980)	time-lapse imaging	Flp-In T-REx mitotic	PLK1 inhibition, with: BI2536 10 µM	–	cortical dynein loss half-time	29.8 min
B3	MAP2K1 (Homo sapiens, UniProt Q02750)	BLI	–	–	–	koff	0.00518 s⁻¹
B4 (TIMP2 27-153)	MMP14 110-300 (Homo sapiens, UniProt P50281)	MMP-14 cleavage of fluorogenic substrate, inhibitor, steady-state kinetics	–	–	–	Ki	0.53 nM
PDE4D3/GFP (Homo sapiens)	AKAP6 (Homo sapiens, UniProt Q13023-1)	co-IP	HEK293	wild type, with: forskolin and IBMX	relative to: normalised to mAKAP precipitated, higher = more PDE4D3 bound	relative binding	8.5
APOA2 (Homo sapiens, UniProt P02652)	APOC1 (Homo sapiens, UniProt P02654)	cross-linking MS	–	with: DSSO	–	cross-linked residues	K53 to K56
NOP56 (Homo sapiens, UniProt O00567)	FBL (Homo sapiens, UniProt P22087)	cross-linking MS	cells	with: iqPIR	–	cross-linked residues	K158 to K222
DYNLRB1/DYNLL1/DYNLT1/DYNC1LI2/DYNC1I2/DYNC1H1 dynein-1 complex (Homo sapiens)	HOOK3/BICD2 chimera Hook3 CC, BicD2 LIC-BD 1-160, HaloTag	pull-down	–	–	–	Ka	< 1.6e+06 M⁻¹
ALB (Homo sapiens, UniProt P02768)	PDE7A (Homo sapiens, UniProt Q13946)	cross-linking MS	–	with: DSSO	–	cross-linked residues	K219 to K452
KKISNTAAALVSLLKEND (Nup60 267-284 D281K (Saccharomyces cerevisiae, UniProt P39705); sequence looked up)	MLP1 382-620 (Saccharomyces cerevisiae, UniProt Q02455)	pull-down	peptide	–	–	binding	binds
CDC6 (Saccharomyces cerevisiae, UniProt P09119)	ORC3 (Saccharomyces cerevisiae, UniProt P54790)	cross-linking MS	–	hits only	–	interaction screen	cross-linked
filgrastim (Homo sapiens, UniProt P09919-2)	CSF3R (Homo sapiens, UniProt Q99062)	STAT3-driven luciferase reporter induction, agonist	293-CSF3R	–	–	EC50	0.25 ng/mL
PSPHGTRRHLPSPP (SOS1 proline-rich peptide, 1264-1277)	GRB2 156-215 (Homo sapiens, UniProt P62993)	NMR titration	peptide	–	–	chemical shift perturbation	0.05 ppm
B5 (Cacna1c 1647-1777)	Jph2 1-440 S165P (Mus musculus, UniProt Q9ET78)	ITC	–	–	–	Kd	7270 nM
B6	TGFB3 fragment, aminocaproic acid, FITC label	fluorescence polarisation	–	with: CaCl2 1 mM	–	EC50	3.1 nM
NSE4 (Saccharomyces cerevisiae, UniProt P43124)	NSE3 (Saccharomyces cerevisiae, UniProt Q05541)	cross-linking MS	–	hits only	–	interaction screen	cross-linked
